Published values pooled from the literature.
± gives the spread as reported.
Cell line: HepG2

The EC50 of `CC(N)Cc1c[nH]c2ccc(OCc3cccs3)cc12` (stereo not shown) is reported as 20 ± 4.8 µM (phospholipidosis induction, inducer, high-content imaging; 24 h, confirmation screen).
The IC50 of `c1cc(-c2cnn3cc(-c4ccc(N5CCNCC5)cc4)cnc23)c2cccnc2c1` is reported as about 0.125 µM (hepcidin mRNA expression, inhibitor, quantitative RT-PCR, measured: hepcidin mRNA; 90 min, together with: IL-6 100 ng/mL).
`CN1CCN(C2Cc3ccccc3Sc3ccc(Cl)cc32)CC1` (stereo not shown) has an EC50 of 3.2 µM (phospholipidosis induction, inducer, high-content imaging; 24 h, primary screen).
For `Oc1ccc(/C=C/c2cc(O)cc(O)c2)cc1`, the OCR was 181.1 ± 1.52% (Seahorse respirometry; concentration not given, 1 h, dosed at MMP IC50, together with: 1 µM FCCP; reference: basal).
The EC50 of `CC[C@H](C)[C@H](NC(=O)[C@H](CO)NC(=O)[C@@H]1CCCN1C(=O)C(C)(C)NC(=O)[C@H](CC(C)C)NC(=O)[C@H](CC(N)=O)NC(=O)C(C)(C)NC(C)=O)C(=O)NC(C)(C)C(=O)N1CCC[C@H]1C(=O)N[C@](C)(CC)C(=O)N[C@@H](CC(C)C)C(=O)NC(C)(C)C(=O)N1CCC[C@H]1C(=O)N[C@H](CO)CC(C)C` is reported as over 25 µM (cytotoxicity, MTS; 48 h).
With `N.N.[Cl][Pt][Cl]` the IC50 was 9.66 µM (cell growth or viability, MTT; 48 h).
With `CC(C)[C@H]1c2ccc(F)cc2CC[C@@]1(CCN(C)CCCc1nc2ccccc2[nH]1)OC(=O)C1CC1` the EC50 was 7.1 µM (phospholipidosis induction, inducer, high-content imaging; 24 h, confirmation screen).
For `Cc1cc2nc3c(=O)[nH]c(=O)nc-3n(C[C@H](O)[C@H](O)[C@H](O)CO)c2cc1C`, the OCR was 190.2 ± 1.86% (Seahorse respirometry; concentration not given, 1 h, dosed at MMP IC50, together with: 1 µM FCCP; reference: basal).
`CC1=CC(=O)c2c(O)cccc2C1=O` has an IC50 of 5.74 µM (cell growth or viability, MTT).
`Oc1c(Cl)cc(Cl)c(Cl)c1Cc1c(O)c(Cl)cc(Cl)c1Cl` has an OCR of 171 ± 2.44% (Seahorse respirometry; concentration not given, 1 h, dosed at MMP IC50, together with: 1 µM FCCP; reference: basal).
The IC50 of `N.N.[Cl][Pt][Cl]` is reported as 18.9 µM (cell growth or viability, CCK-8).
`COc1ccc2c(c1)c(CCN1CCOCC1)c(C)n2C(=O)c1cccc(Cl)c1Cl` has an IC50 of 66.6 ± 31.3 µM (cell viability, ATP content; 24 h).
`CN(C)c1ccc(C(=C2C=CC(=[N+](C)C)C=C2)c2ccccc2)cc1.CN(C)c1ccc(C(=C2C=CC(=[N+](C)C)C=C2)c2ccccc2)cc1.O=C(O)C(=O)O.O=C([O-])C(=O)O.O=C([O-])C(=O)O` has a maximal OCR of 35.4 ± 0.72% (MMP IC50, 1 h, together with: FCCP 1 µM; reference: basal OCR).
`CC[C@H](C)[C@H](NC(=O)C(C)(C)NC(=O)[C@H](CCC(N)=O)NC(=O)[C@H](C)NC(=O)C(C)(C)NC(=O)[C@H](C)NC(=O)C(C)(C)NC(=O)[C@H](C)NC(=O)C(C)(C)NC(C)=O)C(=O)NC(C)(C)C(=O)NCC(=O)N[C@@H](CC(C)C)C(=O)NC(C)(C)C(=O)N1CCC[C@H]1C(=O)N[C@H](C(=O)NC(C)(C)C(=O)N[C@](C)(CC)C(=O)N[C@@H](CCC(N)=O)C(=O)N[C@@H](CCC(N)=O)C(=O)N[C@H](CO)Cc1ccccc1)C(C)C` gave an EC50 of 3.35 ± 0.25 µM (cytotoxicity, MTS; 48 h).
`CC(C)(c1ccccc1)c1ccc(O)cc1` gave an OCR of 150.3 ± 1.35% (Seahorse respirometry; concentration not given, 1 h, dosed at MMP IC50, together with: 1 µM FCCP; reference: basal).
The EC50 of `CC[C@H](C)[C@H](NC(=O)[C@H](C)NC(=O)[C@@H]1CCCN1C(=O)C(C)(C)NC(=O)[C@H](CC(C)C)NC(=O)[C@H](CCC(N)=O)NC(=O)C(C)(C)NC(C)=O)C(=O)NC(C)(C)C(=O)N1CCC[C@H]1C(=O)N[C@](C)(CC)C(=O)N[C@@H](CC(C)C)C(=O)NC(C)(C)C(=O)N1CCC[C@H]1C(=O)N[C@H](CO)CC(C)C` is reported as over 25 µM (cytotoxicity, MTS; 48 h).
